Assay results from different studies.
A part holds a random share of what one study measured.

Sample 1 — method: competition protein-binding microarray; form: double-stranded DNA, one strand shown; medium: in vitro; concentration: 2 µM; added: Cbf1 competitor, 0.05 µM; direction: higher = stronger binding; constant ends, left off below: … GTCTTGATTCGCTTGACGCTGCTG
Target: Phosphate system positive regulatory protein PHO4, full length, GST-tagged (PHO4, Saccharomyces cerevisiae, UniProt P07270, residues 1-312)
Setting: whole 60-bp probe, lowest competitor level
Residues (chain): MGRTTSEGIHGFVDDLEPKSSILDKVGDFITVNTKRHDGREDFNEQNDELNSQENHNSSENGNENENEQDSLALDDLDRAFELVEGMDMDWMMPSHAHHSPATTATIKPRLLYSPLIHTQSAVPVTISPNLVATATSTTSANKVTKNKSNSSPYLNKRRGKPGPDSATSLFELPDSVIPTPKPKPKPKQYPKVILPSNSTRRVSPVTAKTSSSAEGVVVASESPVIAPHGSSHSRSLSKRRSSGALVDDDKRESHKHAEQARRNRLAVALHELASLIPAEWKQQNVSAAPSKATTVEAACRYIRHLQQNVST
Oligonucleotide | fluorescence intensity
TTCCTAGACTGGTCCCACGTTGGGAAAAACCAATCA | 12600 a.u.
CGTCCTAGTGATTGCCTAGTGGGTGCCATGAGGAAG | 6520 a.u.
GGTACGAGAATCGAACCCGTGTCCTCACCTTGGAAG | 8340 a.u.
TGCGCAACAACTTGATACGTGGGTGTATGTCTAGAA | 8380 a.u.
ACCTAACCGGTGTCCCACGTGTTTCACGAAGGGCGC | 21100 a.u.
TGACCGGGTTGACAGTTCGTGACGGGTACTGTGGCG | 4530 a.u.
TGCGCAACAACTTGTAAGGTGGGTGTATGTCTAGAA | 5290 a.u.
CGTCCTAGTGATTTTCACGTGATTTCCATGAGGAAG | 9980 a.u.
AAACTGGGAGAAAGTGACGTGATGGAGGAAATTATG | 4470 a.u.
CTAACGAAGGTTTGGCGTGTGGGTGACAAGCCAAGT | 6670 a.u.
CTTTTCATTAGGCTTCCTAATTATACCCATCTATGC | 3830 a.u.
CTTTCCCGATCTTTTCACGTGTCTTTAGCACATTTG | 13600 a.u.
TCCTGATATTCTCCATTGTCATCCGTTTCGTCTTCC | 3360 a.u.
AACCTCTCAACAAAGCACGCTATGTACACACATCTA | 8400 a.u.
TGAAGACCCACCCATCACGTCTATCCCGCCAGAGTC | 4190 a.u.
CGTCCTAGTGATTGTCACTCAACTTCCATGAGGAAG | 4350 a.u.
TGTTACTCTAAAGGACACGGGAGAAAAGGTCGCCCC | 4930 a.u.
CTTTCCCGATCTTGTTACGTGGGTGTAGCACATTTG | 6070 a.u.
CTGTGTCCTGTGGTAGACCCACTTGTTTTACCGCAG | 4820 a.u.

Sample 2 — method: protein binding microarray; form: double-stranded DNA, one strand shown; medium: in vitro; concentration: not given; reference: not given; direction: higher = stronger binding
Target: Histone acetyltransferase KAT6A, winged helix 1, GST fusion (KAT6A, Homo sapiens, UniProt Q92794, residues 1-85)
Setting: 8-mer, flanks averaged, mean of 2 arrays, mostly near background
Construct (chain): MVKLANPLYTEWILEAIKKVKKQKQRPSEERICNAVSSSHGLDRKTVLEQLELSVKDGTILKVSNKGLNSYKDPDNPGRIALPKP
Oligonucleotide | E-score
GTGACGGA | 0.0873
CAGAATTA | 0.0167
ACCATATA | -0.125
CATCTCCC | 0.0872
AGGTTCTA | -0.155
GCGCAGCA | 0.162
ATCCCACG | -0.0923
GCTTCACC | -0.00338
TCGGTAGA | 0.0481
CGAAATGC | 0.0143
GCATTCAA | -0.201
CCAACCCG | 0.312
CCACCCAG | -0.225
GCAGATCC | -0.0166
ACTCGCGG | 0.311
GCGCAATA | 0.272
CGATGGAA | -0.0593
CGACTAGA | -0.147
ATTGGTTG | -0.201
GCGACAAC | 0.0844
GGCCTATA | 0.0132
AGCCATCG | -0.126
ATACGCCC | 0.25
AAATGGCC | 0.117
TAGGGGCA | -0.231

Sample 3 — method: universal PBM; form: double-stranded DNA, one strand shown; medium: in vitro; concentration: not given; direction: higher = stronger binding
Target: Sal-like protein 4, full length isoform B (SALL4, Homo sapiens, UniProt Q9UJQ4-2, residues 1-616)
Setting: 8-mer, flanks averaged, mean of replicates
Oligonucleotide | E-score
GGCACTTA | -0.0672
AATTTGAC | 0.22
GATGCACC | -0.104
ACGTGAAG | 0.104
AGTTCAGG | -0.0952
AGCGTCTA | -0.0598
CGGGTCAA | -0.27
GAGGGTCA | -0.272
CCTCGGTC | -0.339
CTATTTTC | 0.2
TATAGTGA | 0.319
GATGCAAA | 0.131
CAGGAATC | 0.00517
AAGAATAG | 0.126
GACGTGAA | -0.00815
ACGGGTTA | 0.0646
GACTTACC | -0.0624
ACAGGTCG | -0.135
CCCCTTAG | -0.246
CTGCCCGA | -0.216

Sample 4 — method: protein-binding microarray; form: double-stranded DNA, one strand shown; medium: in vitro; concentration: 250 nM; setting: 60-bp whole probe; added: salmon DNA 0.4 mg/ml; reference: random background probes; direction: higher = stronger binding; constant ends, left off below: GCCTAGCAC … GTCTTGATTCGCTTGACGCTGCTG
Target: Interferon regulatory factor 7, full length, phosphomimetic (IRF7, Homo sapiens, UniProt Q92985, residues 1-503, S101K/S471D/S472D/S475D/S476D/S477D/S483D/S484D/S487D)
Construct (chain): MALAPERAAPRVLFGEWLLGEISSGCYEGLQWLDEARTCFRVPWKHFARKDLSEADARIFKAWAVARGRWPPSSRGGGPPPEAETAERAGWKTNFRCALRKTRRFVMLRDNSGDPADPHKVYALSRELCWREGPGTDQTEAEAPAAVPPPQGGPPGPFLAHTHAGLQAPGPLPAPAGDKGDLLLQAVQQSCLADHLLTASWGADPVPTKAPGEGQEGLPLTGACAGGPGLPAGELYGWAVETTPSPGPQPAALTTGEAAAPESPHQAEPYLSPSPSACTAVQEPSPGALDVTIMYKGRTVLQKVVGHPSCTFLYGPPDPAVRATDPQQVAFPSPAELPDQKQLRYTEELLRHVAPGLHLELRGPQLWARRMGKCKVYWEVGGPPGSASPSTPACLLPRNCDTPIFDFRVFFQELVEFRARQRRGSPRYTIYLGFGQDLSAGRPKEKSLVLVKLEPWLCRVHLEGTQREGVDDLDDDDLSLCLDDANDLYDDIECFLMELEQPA
Oligonucleotide | log fluorescence [z-score]
GACGGACTGCTTTTCCTAACGTGCTAG | 0.324
GACGAACTGGGGTTTCGAGCCGTGCTA | 0.322
ATATATATATTATATATTTATGTGCTA | 0.567
GACGGACTGGGTCTCAGGACGTGCTAG | -0.531
TTAGGACTGGGCCTGGGTTAGTGCTAG | 0.156
GTAGATTTCAGTTCCGATTAGTGCTAG | 1.26
GACGGTATCCTACTGATGACGTGCTAG | -0.448
TGTGGGTTTCGGTGTGGGAGGTGCTAG | 2.22
TTAGATCTCAGAATCGATTAGTGCTAG | 0.737
GTAGATTCCAGTTTCGATTAGTGCTAG | 10.2
TTAGATTCCAGTTTCGATGAGTGCTAG | 4.67
GACGATCTCAGTTTGGAGACGTGCTAG | -0.0184
GAAGGTATCGGTATCGGGACGTGCTAG | 1.34
TCAGCTTTCTTTATGCAACTGTGCTAG | 0.261
TCAAGACTCATAATGGCTAGGTGCTAG | 0.375
TCACCTTTATGTACTCTCACTGTGCTA | 0.455
TTAGATATCAGTTTCGATGAGTGCTAG | 2.08
GACGGTATCATTTTCCTGACGTGCTAG | 0.787
CACGGTCTCGGACTGGGGACGTGCTAG | 0.276

Excerpt of the above (sample 2):
Oligonucleotide | E-score
CCACCCAG | -0.225
GCAGATCC | -0.0166
ACTCGCGG | 0.311
GCGCAATA | 0.272
CGATGGAA | -0.0593
CGACTAGA | -0.147
ATTGGTTG | -0.201
GCGACAAC | 0.0844
GGCCTATA | 0.0132
AGCCATCG | -0.126
